# Results from different studies.
# Each line is one published result; not all experiments were run side by side.
# Organism: Pseudomonas aeruginosa
Compound,assay,test system,conditions,MIC
CN[C@H](CC(C)C)C(=O)N[C@H]1C(=O)N[C@@H](CC(N)=O)C(=O)N[C@H]2C(=O)N[C@H]3C(=O)N[C@H](C(=O)N[C@H](C(=O)NCc4cn(CCCCC(=O)N[C@H](C(=O)N[C@@H](CCN)C(=O)N[C@H]5CCNC(=O)[C@H]([C@@H](C)O)NC(=O)[C@H](CCN)NC(=O)[C@H](CCN)NC(=O)[C@H](CC(C)C)NC(=O)[C@@H](CC(C)C)NC(=O)[C@H](CCN)NC5=O)[C@@H](C)O)nn4)c4cc(O)cc(O)c4-c4cc3ccc4O)[C@H](O)c3ccc(c(Cl)c3)Oc3cc2cc(c3O[C@@H]2O[C@H](CO)[C@@H](O)[C@H](O)[C@H]2O[C@H]2C[C@](C)(N)[C@H](O)[C@H](C)O2)Oc2ccc(cc2Cl)[C@H]1O,broth microdilution,"ATCC 10145, cation-adjusted Mueller-Hinton broth",,> 50 µM
CC[C@H](C)[C@H](NC(=O)[C@@H](CCCNC(=N)N)NC(=O)[C@H](CCCNC(=N)N)NC(=O)[C@@H]1CCCN1C(=O)[C@@H]1CCCN1C(=O)[C@H](CCCNC(=N)N)NC(=O)[C@@H]1CCCN1C(=O)[C@H](CCCNC(=N)N)NC(=O)[C@@H]1CCCN1C(=O)[C@@H](NC(=O)[C@H](Cc1ccc(O)cc1)NC(=O)[C@@H]1CCCN1C(=O)[C@@H]1CCCN1C(=O)[C@H](CCCCN)NC(=O)[C@H](CC(=O)O)NC(=O)[C@@H](N)C(C)C)C(C)(C)C)C(=O)N[C@@H](Cc1ccc(O)cc1)C(=O)N[C@@H](CC(N)=O)C(=O)N[C@H](CCCNC(=N)N)C(N)=O,broth microdilution,DSM 1117,"18 h, 37 °C, 25% MHB2",128 µg/mL
CN[C@H](CC(C)C)C(=O)N[C@H]1C(=O)N[C@@H](CC(N)=O)C(=O)N[C@H]2C(=O)N[C@H]3C(=O)N[C@H](C(=O)N[C@H](C(=O)NCc4cn(CC(=O)N[C@H](C(=O)N[C@@H](CCN)C(=O)N[C@H]5CCNC(=O)[C@H]([C@@H](C)O)NC(=O)[C@H](CCN)NC(=O)[C@H](CCN)NC(=O)[C@H](CC(C)C)NC(=O)[C@@H](CC(C)C)NC(=O)[C@H](CCN)NC5=O)[C@@H](C)O)nn4)c4cc(O)cc(O)c4-c4cc3ccc4O)[C@H](O)c3ccc(c(Cl)c3)Oc3cc2cc(c3O[C@@H]2O[C@H](CO)[C@@H](O)[C@H](O)[C@H]2O[C@H]2C[C@](C)(N)[C@H](O)[C@H](C)O2)Oc2ccc(cc2Cl)[C@H]1O,broth microdilution,"ATCC 13883, cation-adjusted Mueller-Hinton broth",,13 µM
CC(C)C[C@@H](NC(=O)[C@@H](CC(C)C)NC(=O)[C@@H](CCCCN)NC(=O)[C@@H](CCCCNC(=O)[C@@H](CC(C)C)NC(=O)[C@@H](CC(C)C)NC(=O)[C@@H](CCCCNC(=O)[C@@H](CC(C)C)NC(=O)[C@@H](CCCCN)NC(=O)[C@@H](CCCCNC(=O)[C@@H](CC(C)C)NC(=O)[C@H](N)CCCCN)NC(=O)[C@@H](CC(C)C)NC(=O)[C@H](N)CCCCN)NC(=O)[C@@H](CC(C)C)NC(=O)[C@@H](CCCCN)NC(=O)[C@@H](CCCCNC(=O)[C@@H](CC(C)C)NC(=O)[C@H](N)CCCCN)NC(=O)[C@@H](CC(C)C)NC(=O)[C@H](N)CCCCN)NC(=O)[C@@H](CC(C)C)NC(=O)[C@@H](CC(C)C)NC(=O)[C@@H](CCCCNC(=O)[C@@H](CC(C)C)NC(=O)[C@@H](CCCCN)NC(=O)[C@@H](CCCCNC(=O)[C@@H](CC(C)C)NC(=O)[C@H](N)CCCCN)NC(=O)[C@@H](CC(C)C)NC(=O)[C@H](N)CCCCN)NC(=O)[C@@H](CC(C)C)NC(=O)[C@@H](CCCCN)NC(=O)[C@@H](CCCCNC(=O)[C@@H](CC(C)C)NC(=O)[C@H](N)CCCCN)NC(=O)[C@@H](CC(C)C)NC(=O)[C@H](N)CCCCN)C(N)=O,broth microdilution,"ZEM9A, multidrug-resistant clinical isolate","20 h, 37 °C",8 µg/mL
c1ccc2c(c1)nc(CNCC13CC4CC(CC(C4)C1)C3)n2CC1CCCCC1,,ATCC 27853,,> 128 µg/mL
CCCCCCCC(=O)N[C@@H](CCN)C(=O)N[C@H](C(=O)N[C@@H](CCN)C(=O)N[C@H]1CCNC(=O)[C@H]([C@@H](C)O)NC(=O)[C@H](CCN)NC(=O)[C@H](CCN)NC(=O)[C@H](Cc2cccc(F)c2)NC(=O)[C@@H](CC(C)C)NC(=O)[C@H](CCN)NC1=O)[C@@H](C)O,broth microdilution,colistin-resistant isolates,,1 to 2 µg/mL
CC[C@H](C)[C@H](N)C(=O)N[C@@H](CCCNC(=N)N)C(=O)N[C@H](C(=O)N[C@@H](Cc1c[nH]c2ccccc12)C(=O)N[C@@H](Cc1ccccc1)C(=O)N[C@H](C(=O)N[C@@H](CCCCN)C(=O)N[C@H](C(=O)N[C@@H](CCCNC(=N)N)C(=O)N[C@@H](CCCCN)C(=O)N[C@@H](CCSC)C(=O)N[C@@H](CCCCN)C(=O)N[C@@H](C)C(=O)N[C@H](C(=O)N[C@@H](Cc1ccc(O)cc1)C(=O)N[C@@H](Cc1c[nH]cn1)C(N)=O)[C@@H](C)CC)C(C)C)[C@@H](C)CC)C(C)C,broth dilution,ATCC 27853,,100 µM
CC[C@H](C)[C@H](NC(=O)[C@H](CCCCN)NC(=O)[C@H](CCCCN)NC(=O)[C@H](Cc1ccccc1)NC(=O)[C@H](Cc1ccccc1)NC(=O)[C@H](CCCCN)NC(=O)[C@H](CCCCN)NC(=O)[C@H](Cc1ccccc1)NC(=O)[C@H](CCCNC(=N)N)NC(=O)[C@@H](N)CCCCN)C(=O)N[C@@H](CCCCN)C(=O)N[C@@H](CCCCN)C(=O)N[C@@H](CO)C(=O)N[C@H](C(=O)N[C@@H](CCCCN)C(=O)N[C@@H](CCCCN)C(=O)N[C@@H](CCCNC(=N)N)C(=O)N[C@H](C(=O)N[C@@H](CCCCN)C(=O)N[C@@H](CCCCN)C(=O)N[C@@H](CC(C)C)C(=O)N[C@@H](Cc1ccccc1)C(=O)N[C@@H](CCCCN)C(=O)N[C@@H](CCCCN)C(=O)N1CCC[C@H]1C(=O)N[C@@H](CCCNC(=N)N)C(=O)N[C@H](C(=O)N[C@H](C(=O)N1CCC[C@H]1C(=O)N[C@H](C(=O)N[C@@H](CO)C(=O)N[C@H](C(=O)N1CCC[C@H]1C(=O)N[C@@H](Cc1ccccc1)C(=O)O)[C@@H](C)CC)[C@@H](C)CC)[C@@H](C)CC)C(C)C)C(C)C)C(C)C,CLSI agar dilution,ATCC 27853,"20 h, 37 °C",16 µg/mL
CC[C@H](C)[C@H](NC(=O)[C@@H](CCCNC(=N)N)NC(=O)[C@H](CCCNC(=N)N)NC(=O)[C@H](CC(C)C)NC(=O)[C@H](Cc1c[nH]c2ccccc12)NC(=O)[C@H](CCCNC(=N)N)NC(=O)[C@@H]1CCCN1C(=O)[C@H](CCCNC(=N)N)NC(=O)[C@@H]1CCCN1C(=O)[C@H](CC(C)C)NC(=O)[C@H](Cc1ccc(O)cc1)NC(=O)[C@@H]1CCCN1C(=O)[C@@H]1CCCN1C(=O)[C@H](CCCCN)NC(=O)[C@H](CC(=O)O)NC(=O)[C@@H](N)C(C)C)C(=O)N[C@@H](Cc1ccc(O)cc1)C(=O)N[C@@H](CC(N)=O)C(=O)N[C@H](CCCNC(=N)N)C(N)=O,broth microdilution,DSM 1117,"18 h, 37 °C, 25% MHB2",128 µg/mL
C#CCNC(=O)[C@H]1NC(=O)[C@H]2NC(=O)[C@H](NC(=O)[C@@H]3NC(=O)[C@H](CC(N)=O)NC(=O)[C@H](NC(=O)[C@@H](CC(C)C)NC)[C@H](O)c4ccc(c(Cl)c4)Oc4cc3cc(c4O[C@@H]3O[C@H](CO)[C@@H](O)[C@H](O)[C@H]3O[C@H]3C[C@](C)(N)[C@H](O)[C@H](C)O3)Oc3ccc(cc3Cl)[C@H]2O)c2ccc(O)c(c2)-c2c(O)cc(O)cc21,broth microdilution,"ATCC 25922, cation-adjusted Mueller-Hinton broth",,43 µM
CCCCCCCC(=O)N[C@@H](CCN)C(=O)N[C@H](C(=O)N[C@@H](CCN)C(=O)N[C@H]1CCNC(=O)[C@H]([C@@H](C)O)NC(=O)[C@H](CCN)NC(=O)[C@H](CCN)NC(=O)[C@H](CC(C)C)NC(=O)[C@@H](Cc2cc(F)c(F)c(F)c2)NC(=O)[C@H](CCN)NC1=O)[C@@H](C)O,broth microdilution,"PAO1, colistin-susceptible",,< 0.125 µg/mL
CC[C@H](C)[C@H](NC(=O)[C@@H](CCCNC(=N)N)NC(=O)[C@H](CCCNC(=N)N)NC(=O)[C@@H]1CCCN1C(=O)[C@@H]1CCCN1C(=O)[C@H](Cc1ccccc1)NC(=O)[C@@H]1CCCN1C(=O)[C@H](CCCNC(=N)N)NC(=O)[C@@H]1CCCN1C(=O)[C@H](CC(C)C)NC(=O)[C@H](Cc1ccc(O)cc1)NC(=O)[C@@H]1CCCN1C(=O)[C@@H]1CCCN1C(=O)[C@H](CCCCN)NC(=O)[C@H](CC(=O)O)NC(=O)[C@@H](N)C(C)C)C(=O)N[C@@H](Cc1ccc(O)cc1)C(=O)N[C@@H](CC(N)=O)C(=O)N[C@H](CCCNC(=N)N)C(N)=O,broth microdilution,DSM 1117,"18 h, 37 °C, 25% MHB2",> 128 µg/mL
CN[C@H](CC(C)C)C(=O)N[C@H]1C(=O)N[C@@H](CC(N)=O)C(=O)N[C@H]2C(=O)N[C@H]3C(=O)N[C@H](C(=O)N[C@H](C(=O)NCC(N)=O)c4cc(O)cc(O)c4-c4cc3ccc4O)[C@H](O)c3ccc(c(Cl)c3)Oc3cc2cc(c3O[C@@H]2O[C@H](CO)[C@@H](O)[C@H](O)[C@H]2O[C@H]2C[C@](C)(NCc3ccc(OCc4cn(CC(=O)N[C@H](C(=O)N[C@@H](CCN)C(=O)N[C@H]5CCNC(=O)[C@H]([C@@H](C)O)NC(=O)[C@H](CCN)NC(=O)[C@H](CCN)NC(=O)[C@H](CC(C)C)NC(=O)[C@@H](CC(C)C)NC(=O)[C@H](CCN)NC5=O)[C@@H](C)O)nn4)c(OC)c3)[C@H](O)[C@H](C)O2)Oc2ccc(cc2Cl)[C@H]1O,broth microdilution,"ATCC 35218, cation-adjusted Mueller-Hinton broth",,3 µM
CC(C)C[C@H](NC(=O)[C@H](CCC(=O)O)NC(=O)[C@H](C)NC(=O)[C@H](CC(C)C)NC(=O)[C@H](CCC(=O)O)NC(=O)[C@H](C)NC(=O)[C@H](CCC(N)=O)NC(=O)[C@H](CC(C)C)NC(=O)[C@H](CCC(=O)O)NC(=O)[C@H](Cc1ccc(O)cc1)NC(=O)[C@H](CC(C)C)NC(=O)[C@H](CCC(N)=O)NC(=O)[C@H](C)NC(=O)[C@H](CCC(=O)O)NC(=O)[C@H](CC(C)C)NC(=O)[C@H](CCC(N)=O)NC(=O)[C@H](C)NC(=O)[C@H](CC(C)C)NC(=O)[C@H](CCC(=O)O)NC(=O)[C@H](C)NC(=O)[C@@H](N)CCC(N)=O)C(N)=O,,ATCC 27853,24 h,> 250 µM
C#CCOc1ccc(CN[C@@]2(C)C[C@H](O[C@H]3[C@H](Oc4c5cc6cc4Oc4ccc(cc4Cl)[C@@H](O)[C@@H](NC(=O)[C@@H](CC(C)C)NC)C(=O)N[C@@H](CC(N)=O)C(=O)N[C@H]6C(=O)N[C@H]4C(=O)N[C@H](C(=O)N[C@H](C(=O)N[C@@H](CCCNC(=N)N)C(N)=O)c6cc(O)cc(O)c6-c6cc4ccc6O)[C@H](O)c4ccc(c(Cl)c4)O5)O[C@H](CO)[C@@H](O)[C@@H]3O)O[C@@H](C)[C@H]2O)cc1OC,broth microdilution,"ATCC 25922, cation-adjusted Mueller-Hinton broth",,9 µM
CN[C@@H]1[C@H](O)[C@H](NC)[C@H]2O[C@]3(O)[C@H](O[C@@H]2[C@H]1O)O[C@H](C)C[C@H]3NC(=O)Cc1ccc(Cl)cn1,"microbial growth, broth dilution",PAO1,,> 200 µg/mL

# Some of these lines once more:
Compound,assay,test system,conditions,MIC
CC(C)C[C@@H](NC(=O)[C@@H](CC(C)C)NC(=O)[C@@H](CCCCN)NC(=O)[C@@H](CCCCNC(=O)[C@@H](CC(C)C)NC(=O)[C@@H](CC(C)C)NC(=O)[C@@H](CCCCNC(=O)[C@@H](CC(C)C)NC(=O)[C@@H](CCCCN)NC(=O)[C@@H](CCCCNC(=O)[C@@H](CC(C)C)NC(=O)[C@H](N)CCCCN)NC(=O)[C@@H](CC(C)C)NC(=O)[C@H](N)CCCCN)NC(=O)[C@@H](CC(C)C)NC(=O)[C@@H](CCCCN)NC(=O)[C@@H](CCCCNC(=O)[C@@H](CC(C)C)NC(=O)[C@H](N)CCCCN)NC(=O)[C@@H](CC(C)C)NC(=O)[C@H](N)CCCCN)NC(=O)[C@@H](CC(C)C)NC(=O)[C@@H](CC(C)C)NC(=O)[C@@H](CCCCNC(=O)[C@@H](CC(C)C)NC(=O)[C@@H](CCCCN)NC(=O)[C@@H](CCCCNC(=O)[C@@H](CC(C)C)NC(=O)[C@H](N)CCCCN)NC(=O)[C@@H](CC(C)C)NC(=O)[C@H](N)CCCCN)NC(=O)[C@@H](CC(C)C)NC(=O)[C@@H](CCCCN)NC(=O)[C@@H](CCCCNC(=O)[C@@H](CC(C)C)NC(=O)[C@H](N)CCCCN)NC(=O)[C@@H](CC(C)C)NC(=O)[C@H](N)CCCCN)C(N)=O,broth microdilution,"ZEM9A, multidrug-resistant clinical isolate","20 h, 37 °C",8 µg/mL
c1ccc2c(c1)nc(CNCC13CC4CC(CC(C4)C1)C3)n2CC1CCCCC1,,ATCC 27853,,> 128 µg/mL
